Measurements of several laboratories.
Each line is one published result; not all experiments were run side by side. Values joined by “and” are separate records of one study, mostly repeats; a detail may differ. Numbers after ± are the reported error.

Compound	test	test system	conditions	how to read	endpoint	value
COCC1CN(C2CCN(c3cc(OC)c(Nc4ncc(Br)c(Nc5ccc6c(c5P(C)(C)=O)OCCO6)n4)cc3C)CC2)C1		human patients	oral, 240 mg once daily		treatment-related deaths	0%
CC(C)[C@H](NC(=O)[C@@H](NC(=O)[C@H](CCCNC(=N)N)NC(=O)[C@H](CCCNC(=N)N)NC(=O)[C@H](CCCNC(=N)N)NC(=O)[C@H](CCC(N)=O)NC(=O)[C@H](CCCNC(=N)N)NC(=O)[C@H](CCCNC(=N)N)NC(=O)[C@H](CCCCN)NC(=O)[C@H](CCCCN)NC(=O)[C@H](CCCNC(=N)N)NC(=O)CN)[C@@H](C)O)C(=O)N[C@H](C(=O)N[C@@H](CO)C(=O)N1CCC[C@H]1C(=O)O)[C@@H](C)O		ICR mice, female, heart	intranasal, 20 mg/kg daily, 4 weeks		organ weight	0.188 ± 0.021 g
Cc1ccc(CNC(=O)c2ccn3c(-c4ccc(C#N)cc4)cnc3c2)cn1		human plasma			unbound fraction	0.066
CCCCCCCCCCCCCCCC(=O)N[C@@H](CCC(=O)NCCOCCOCCC(=O)NCCOCCOCCC(=O)NCCCC[C@H](NC(=O)[C@H](CC(=O)O)NC(=O)[C@H](CC(C)C)NC(=O)[C@H](Cc1ccc(O)cc1)NC(=O)[C@H](CCCCN)NC(=O)[C@H](CO)NC(=O)[C@H](Cc1ccc(O)cc1)NC(=O)[C@H](CC(=O)O)NC(=O)[C@H](CO)NC(=O)[C@@H](NC(=O)[C@H](Cc1ccccc1)NC(=O)[C@@H](NC(=O)CNC(=O)[C@H](CCC(N)=O)NC(=O)[C@@H](CO)NC(=O)[C@@H](N)Cc1c[nH]cn1)[C@@H](C)O)[C@@H](C)O)C(=O)N[C@@H](CCCNC(=N)N)C(=O)N[C@@H](CCCNC(=N)N)C(=O)N[C@@H](C)C(=O)N[C@@H](CCC(N)=O)C(=O)N[C@@H](CC(=O)O)C(=O)N[C@@H](Cc1ccccc1)C(=O)N[C@H](C(=O)N[C@@H](CCC(N)=O)C(=O)N[C@@H](Cc1c[nH]c2ccccc12)C(=O)N[C@@H](CC(C)C)C(=O)N[C@@H](CC(C)C)C(=O)N[C@@H](CC(N)=O)C(=O)N[C@H](C(=O)NCC(=O)NCC(=O)N1CCC[C@H]1C(=O)N[C@@H](CO)C(=O)N[C@@H](CO)C(=O)NCC(=O)N[C@@H](C)C(=O)N1CCC[C@H]1C(=O)N1CCC[C@H]1C(=O)N1CCC[C@H]1C(=O)N[C@@H](CO)C(N)=O)[C@@H](C)O)C(C)C)C(=O)O		Sprague-Dawley rat, female	subcutaneous, 100 µg/kg once daily, 14 days		total bilirubin	1.3 ± 0.7 µmol/L
CCCCCCCCCCCCCC(=O)N[C@H](CCN)C(=O)N[C@@H]1C(=O)N[C@@H](CCN)C(=O)N[C@@H](CC(C)C)C(=O)N[C@@H](CCN)C(=O)N[C@H](Cc2ccccc2)C(=O)N[C@@H](CC(C)C)C(=O)N[C@@H](CCN)C(=O)N[C@H](CCN)C(=O)N[C@@H](C(C)C)C(=O)N[C@@H](CC(=O)O)C(=O)O[C@@H]1C		rat, plasma	intravenous, 5 mg/kg		AUC(0-t)	56300 ng·h/mL
NC1CCN(C(=O)Oc2ccc(C3CCCC4(C3)OOC3(O4)C4CC5CC(C4)CC3C5)cc2)CC1 (racemic)		male Sprague-Dawley rat, plasma	intravenous, 10 mg/kg		AUC(0-inf)	2910 ng·h/mL
CC(C)C[C@@H](NC(=O)[C@@H](CCCNC(=N)N)NC(=O)[C@@H](Cc1c[nH]cn1)NC(=O)[C@@H](Cc1c[nH]c2ccccc12)NC(=O)[C@@H](Cc1c[nH]cn1)NC(=O)[C@@H](Cc1ccccc1)NC(=O)[C@H](NC(=O)[C@@H](Cc1ccc(O)cc1)NC(=O)CNC(=O)CNC(=O)CCOCCOCCOCCNC(=O)CN1CCN(CC(=O)O)CCN(CC(=O)O)CC1)[C@H](C)O)C(=O)N[C@H](CC(N)=O)C(=O)N1CCC[C@@H]1C(=O)O [gallium-68 labelled]	gamma counting	C57BL/6 mice, male, intestines	intravenous, 1.85 MBq, 60 min		tissue uptake	1.06 ± 0.31 %ID/g
Cn1nc(NS(C)(=O)=O)c2c(Cl)ccc(-n3c([C@H](Cc4cc(F)cc(F)c4)NC(=O)Cn4nc(C(F)F)c5c4C(F)(F)[C@@H]4C[C@H]54)nc4nc(OCCC(F)(F)F)ccc4c3=O)c21		human, plasma	oral, 200 mg single dose, powder in bottle, median		tmax	10 h
CC[C@H](C)[C@H](NC(=O)[C@H](CCCCN)NC(=O)CNC(=O)[C@H](CC(C)C)NC(=O)[C@H](Cc1ccccc1)NC(=O)[C@H](CCCCN)NC(=O)[C@H](CO)NC(=O)[C@H](Cc1ccccc1)NC(=O)[C@H](Cc1c[nH]c2ccccc12)NC(=O)[C@H](CCC(N)=O)NC(=O)[C@@H](NC(=O)[C@H](Cc1ccccc1)NC(=O)CCCCCNC(=O)CN1CCN(CC(=O)O)CCN(CC(=O)O)CCN(CC(=O)O)CC1)C(C)C)C(=O)N[C@@H](CCC(=O)O)C(=O)N1CCC[C@H]1C(=O)N[C@@H](CC(=O)O)C(=O)N[C@H](C(=O)N[C@@H](CO)C(=O)N[C@@H](CCC(N)=O)C(=O)N[C@H](C(=O)N[C@@H](CCC(N)=O)C(=O)N[C@@H](CC(=O)O)C(=O)N1CCC[C@H]1C(=O)N[C@@H](CC(N)=O)C(=O)N[C@@H](CC(=O)O)C(=O)N[C@@H](CCC(N)=O)C(=O)N[C@@H](Cc1ccc(O)cc1)C(=O)N[C@@H](CCC(=O)O)C(=O)N1CCC[C@H]1C(=O)N[C@@H](Cc1ccccc1)C(=O)O)C(C)C)C(C)C [copper-64 labelled]	dynamic PET	mouse, CT26 tumour, checkpoint inhibitor-treated, tumour	intravenous, 100 µCi/mouse, 1170 s		SUVmean	3.82 SUV
CCN(CC)CCOc1ccc(-c2nnn(Cc3ccc(OC)cc3)c2N)cc1		human hepatocytes	concentration not given, time not given		remaining compound	68.7%
O=C1NC2(CC2)COc2ncc(F)cc2[C@H]2COCCN2c2ccn3ncc1c3n2		Sprague-Dawley rat, male, blood	oral, 2.5 mg/kg/day, 4 weeks, end of recovery, subacute toxicity		neutrophil percentage	11.3 ± 3%
CCCCC(CC)COC(=O)CC(C(=O)OCC(CC)CCCC)S(=O)(=O)O.COC(=O)Nc1nc2cc(C(=O)c3ccc(F)cc3)ccc2[nH]1 (centres unmarked)	visual inspection	Miglyol 812			solubility	< 5000 µg/mL
CSCC[C@H](N)C(=O)N[C@@H](C)C(=O)N[C@@H](Cc1c[nH]c2ccccc12)C(=O)N[C@@H](Cc1c[nH]cn1)C(=O)N[C@@H](CC(=O)O)C(=O)N[C@@H](CC(=O)O)C(=O)N[C@@H](CCC(=O)O)C(=O)N[C@@H](CCC(=O)O)C(=O)N[C@@H](Cc1ccccc1)C(=O)N[C@@H](C)C(=O)N[C@@H](CCCNC(=N)N)C(=O)N[C@@H](CCCNC(=N)N)C(=O)N[C@@H](CCCNC(=N)N)C(=O)N[C@@H](CCCNC(=N)N)C(=O)NCCCCCC(=O)NCCCCC(NC(=O)CCCCCNC(=O)[C@H](CCCNC(=N)N)NC(=O)[C@H](CCCNC(=N)N)NC(=O)[C@H](CCCNC(=N)N)NC(=O)[C@H](CCCNC(=N)N)NC(=O)[C@H](C)NC(=O)[C@H](Cc1ccccc1)NC(=O)[C@H](CCC(=O)O)NC(=O)[C@H](CCC(=O)O)NC(=O)[C@H](CC(=O)O)NC(=O)[C@H](CC(=O)O)NC(=O)[C@H](Cc1c[nH]cn1)NC(=O)[C@H](Cc1c[nH]c2ccccc12)NC(=O)[C@H](C)NC(=O)[C@@H](N)CCSC)C(=O)NCCCCC(NC(=O)C(CCCCNC(=O)CCCCCNC(=O)[C@H](CCCNC(=N)N)NC(=O)[C@H](CCCNC(=N)N)NC(=O)[C@H](CCCNC(=N)N)NC(=O)[C@H](CCCNC(=N)N)NC(=O)[C@H](C)NC(=O)[C@H](Cc1ccccc1)NC(=O)[C@H](CCC(=O)O)NC(=O)[C@H](CCC(=O)O)NC(=O)[C@H](CC(=O)O)NC(=O)[C@H](CC(=O)O)NC(=O)[C@H](Cc1c[nH]cn1)NC(=O)[C@H](Cc1c[nH]c2ccccc12)NC(=O)[C@H](C)NC(=O)[C@@H](N)CCSC)NC(=O)CCCCCNC(=O)[C@H](CCCNC(=N)N)NC(=O)[C@H](CCCNC(=N)N)NC(=O)[C@H](CCCNC(=N)N)NC(=O)[C@H](CCCNC(=N)N)NC(=O)[C@H](C)NC(=O)[C@H](Cc1ccccc1)NC(=O)[C@H](CCC(=O)O)NC(=O)[C@H](CCC(=O)O)NC(=O)[C@H](CC(=O)O)NC(=O)[C@H](CC(=O)O)NC(=O)[C@H](Cc1c[nH]cn1)NC(=O)[C@H](Cc1c[nH]c2ccccc12)NC(=O)[C@H](C)NC(=O)[C@@H](N)CCSC)C(N)=O (some centres unmarked)		C57BL/6 mouse female, femur	dose not given, 3 h	baseline: total	tissue distribution	0.97% and 1.74% and 2.07%
CN1Cc2cc(Cl)ccc2-n2c(nnc2C2CCN(c3cccc([18F])n3)CC2)C1		C57BL/6 mouse male, thymus	intravenous, 3.7 MBq, 60 min		tissue uptake	3.58 ± 4.09 %ID/g
N#[11C]c1ccc(-c2csc(NN=C3CCCC3)n2)cc1	dynamic PET/CT	C57BL/6 mouse, lung	intravenous, dose not given, end of PET scan		radioactivity uptake	0.5 SUV
CC(C)C[C@H](NC(=O)[C@H](Cc1ccc(O)cc1)NC(=O)[C@H](Cc1c[nH]cn1)NC(=O)[C@H](CC(N)=O)NC(=O)[C@H](CC(C)C)NC(=O)[C@H](C)NC(=O)[C@H](CC(C)C)NC(=O)CNC(=O)CNC(=O)[C@@H](NC(=O)[C@@H](NC(=O)[C@H](CCCCN)NC(=O)CNC(=O)[C@@H](NC(=O)[C@H](CCCCN)NC(=O)[C@H](CCCCN)NC(=O)[C@H](C)NC(=O)[C@H](CCCCN)NC(=O)[C@H](CCCNC(=N)N)NC(=O)[C@H](Cc1ccccc1)NC(=O)[C@H](Cc1c[nH]c2ccccc12)NC(=O)[C@H](CC(=O)O)NC(=O)[C@H](CCCCN)NC(=O)[C@H](Cc1c[nH]c2ccccc12)NC(=O)CN)C(C)C)[C@@H](C)O)C(C)C)C(N)=O		zebrafish embryos 28 hpf, E3 medium	24 h		chronic toxic concentration	5 µM
CSCC[C@H](NC(=O)CNC(=O)[C@H](CCCCN)NC(=O)[C@H](CC(C)C)NC(=O)[C@@H]1CCCN1C(=O)[C@H](CO)NC(=O)[C@H](Cc1c[nH]cn1)NC(=O)[C@H](Cc1c[nH]c2ccccc12)NC(=O)[C@H](CCCNC(=N)N)NC(=O)[C@H](CC(C)C)NC(=O)[C@H](CCCNC(=N)N)NC(=O)[C@H](Cc1c[nH]c2ccccc12)NC(=O)[C@H](CS)NC(=O)CCCCCNC(=O)CN1CCN(CC(=O)O)CCN(CC(=O)O)CCN(CC(=O)O)CC1)C(=O)O [copper-64 labelled]		BALB/c nude mouse, Huh-7 tumour, tumour and muscle	intravenous, 1.85 MBq, 18 h, ex vivo biodistribution	baseline: tumour over muscle	tumour-to-muscle ratio	11.2

For quick reference, copied from above:
Compound	test	test system	conditions	how to read	endpoint	value
CCCCC(CC)COC(=O)CC(C(=O)OCC(CC)CCCC)S(=O)(=O)O.COC(=O)Nc1nc2cc(C(=O)c3ccc(F)cc3)ccc2[nH]1 (centres unmarked)	visual inspection	Miglyol 812			solubility	< 5000 µg/mL
Cc1ccc(CNC(=O)c2ccn3c(-c4ccc(C#N)cc4)cnc3c2)cn1		human plasma			unbound fraction	0.066
